Measurements gathered from unrelated publications.
Target: Phosphatidylinositol 5-phosphate 4-kinase type-2 beta (PIP4K2B, Homo sapiens, UniProt P78356)

Cc1ccc(-c2c(/C=C(\C#N)C(=O)NC(C)C)n(CCCO)c3ncnc(N)c23)cc1  remaining binding (cell-free assay, competition with immobilised ligand; 1 µM): 87%
COc1cc(Nc2nc(C)cc(-c3cnn4nc(OC)ccc34)n2)cc(C(F)(F)F)c1  remaining binding (binding, competition with immobilised ligand; 1 µM): 96%
CNC1C[S+]2CC[S+]3CC[S+](C1)[Ru-4]321([N]=C=S)[n]2c3ccc(OC)cc3c3c4c(c5cc(F)c[n+]1c5c32)C(=O)NC4=O (stereo not shown)  remaining binding (KinomeScan; 0.1 µM; relative to: untreated): 95%
CCN1CCN(Cc2ccc(C(=O)Nc3ccc(C)c(NCc4cnc5[nH]ccc5c4OC)c3)cc2C(F)(F)F)CC1  remaining binding (binding, competition with immobilised ligand; 1 µM): 100%
COc1cc(Nc2nccc(-c3cnn4nc(OC)ccc34)n2)cc(C(F)(F)F)c1  remaining binding (binding, competition with immobilised ligand; 1 µM): 50%
C=CC(=O)N1CCc2ccc(-n3c(=O)ccc4cnc5ccc(-c6cnn(C)c6)cc5c43)cc21  remaining binding (KINOMEscan; 1 µM; relative to: DMSO control): 100%
Nc1ncc2c(n1)-c1c([nH]c3ccc(C4=CCOCC4)cc13)CCC2  remaining binding (binding, competition with immobilised ligand; 1 µM): 74%
COc1c(Cl)cccc1Nc1c(-c2ccncc2C#C[C@@]2(C)CCCN2C(=O)/C=C/CN(C)C)[nH]c2c1C(=O)NCC2  remaining binding (cell-free assay, competition with immobilised ligand; 3 µM): 100%
Cc1cnc2nc1Nc1cccc(c1)COC/C=C/COCc1cc(ccc1OCCN1CCOCC1)N2  remaining binding (binding, competition with immobilised ligand; 0.1 µM): 100%
CC(C)=CC1OC(C)(C)C2C=C3C(=O)C(Cl)=CC(O)C3C3C(O)C4OC4C(=O)C132 (stereo not shown)  remaining binding (cell-free assay, competition with immobilised ligand; 10 µM): 100%
CS(=O)(=O)Nc1cccc(-c2csc3cnc(Nc4ccc(N5CCN(CCCCCOc6cccc7c6C(=O)N(C6CCC(=O)NC6=O)C7=O)CC5)cc4)nc23)c1 (stereo not shown)  inhibition (probe labelling, inhibitor, KiNativ chemoproteomics; MOLT-4; 1 µM): 7.5%
CNC(=O)C1CCN(c2cc(C)c(F)cc2NC(=O)c2ccc(-c3cc(O)ccc3C)c(C)c2)CC1  remaining binding (binding, competition with immobilised ligand; 1 µM): 100%
C=CC(=O)N1CCCC(n2c(=O)c3ncccc3n(Cc3ccc(Oc4ccccc4)cc3)c2=O)C1 (stereo not shown)  remaining binding (cell-free assay, competition with immobilised ligand; 1 µM): 100%
